Measured values gathered from unrelated publications.
Protocols differ between the studies behind these lines. Numbers after ± are the reported error.

For `COc1cc(CNC(=O)C[C@H](C)CCC=C(C)C)ccc1OCc1cn(-c2cccc([N+](=O)[O-])c2)nn1`, the growth percent was 82.7% (HOP-62; SRB; 10 µM, 48 h).
The EC50 of `Ic1cccc2cnccc12` is reported as 2.1 µM (mouse DRG neurons axotomized; axon fragmentation; 2 h pretreatment, 16 h post-axotomy).
The EC50 of `C(=C/c1ccccc1)/c1ccccc1` is reported as 31 µM (HL-60; apoptosis, flow cytometry, refers to: caspase-3 activity; 24 h, 50% apoptosis induction).
`FC(F)(F)c1ccnc(-c2cc(C(F)(F)F)ccn2)c1.FC(F)(F)c1ccnc(-c2cc(C(F)(F)F)ccn2)c1.[Cl-].[Cl-].[Ru+2].c1csc(-c2ccc(-c3ccc(-c4nc5c6cccnc6c6ncccc6c5[nH]4)s3)s2)c1` has an EC50 of 7.02 µM (SK-MEL-28; cell viability; normoxia, with: red light 633 nm, 100 J/cm2).
`CC(C)C[C@@H](/C=C/[C@H](Cc1ccccc1)C(=O)N1CCC[C@H]1C(=O)N[C@H](C(=O)N[C@@H](CCCNC(=O)OCc1ccccc1)C(=O)NC1CC(C)(C)N([O])C(C)(C)C1)C(C)C)NC(=O)OCC[S+]([O-])CC1(C)COC1` (stereo partly shown) has an EC50 of 3.5 µM (HT-1080; ferroptosis protection; with: erastin 10 µM).
With `Nc1ncnc2c1c(-c1ccc(F)c(Cl)c1)cn2[C@@H]1O[C@H](CO)[C@@H](O)[C@H]1O` the EC50 was > 200 µM (HEK; cytotoxicity).
With `C=C1[C@H](O)CC(=C/C=C2\CCC[C@]3(C)[C@@H]([C@H](C)CCCC)CC[C@@H]23)C[C@H]1O` the EC50 was 0.1 µM (HL-60; cell differentiation, NBT reduction; 50% maturation).
`Nc1ncnc2c1c(-c1ccc(Cl)cc1F)cn2[C@@H]1O[C@H](CO)[C@@H](O)[C@H]1O` gave an EC50 of > 200 µM (HEK; cytotoxicity).
With `Cn1cncn1.[Ru+2].c1cc(-c2ccc3ccccc3n2)nc(-c2ccc3ccccc3n2)c1.c1ccc2cc3nc4c5cccnc5c5ncccc5c4nc3cc2c1` the EC50 was 14 ± 1 µM (4T1; cell viability, MTT; 4 h, green light, 10 min).
`Cc1ccccc1-c1cn([C@@H]2O[C@H](CO)[C@@H](O)[C@H]2O)c2ncnc(N)c12` gave an EC50 of > 200 µM (HEK; cytotoxicity).
`C=C1[C@H](O)CC(=C/C=C2\CCC[C@]3(C)[C@@H]([C@@H](C)CCCCO)CC[C@@H]23)C[C@H]1O` has an EC50 of 0.003 µM (HL-60; cell differentiation, NBT reduction; 50% maturation).
`COc1cccc(C2CC(c3ccccc3Cl)Nc3nc(N)nn32)c1` (stereo not shown) gave an EC50 of 8.6 ± 1.8 µM (MEF with dox-inducible FLAG-LMNB1; lamin B1 reduction, high-content imaging, refers to: lamin B1; 48 h, with: doxycycline).
The EC50 of `CCc1noc(CC)c1C(=O)O[C@H]1C(C)=C[C@]23C(=O)[C@@H](C=C(CO)[C@@H](O)[C@]12O)[C@H]1[C@@H](C[C@H]3C)C1(C)C` is reported as 0.0011 µM (primary human epidermal keratinocytes; cell growth inhibition, CyQUANT DNA content; 72 h).
`COc1cc(CNC(=O)C[C@H](C)CCC=C(C)C)ccc1O` has a growth percent of 101% (HCT-15; SRB; 10 µM, 48 h).
The EC50 of `CCCCCCCOc1ccc(CC[C@](N)(CO)COP(=O)(O)O)cc1C(F)(F)F` is reported as 0.0416 µM (human atrial myocytes; GIRK current, activator, whole-cell patch clamp; baseline: carbachol 20 µM response).
`Cc1ccc(-c2cn([C@@H]3O[C@H](CO)[C@@H](O)[C@H]3O)c3ncnc(N)c23)cc1F` has an EC50 of > 200 µM (HEK; cytotoxicity).

Repeated from above:
The EC50 of `C(=C/c1ccccc1)/c1ccccc1` is reported as 31 µM (HL-60; apoptosis, flow cytometry, refers to: caspase-3 activity; 24 h, 50% apoptosis induction).
With `Cn1cncn1.[Ru+2].c1cc(-c2ccc3ccccc3n2)nc(-c2ccc3ccccc3n2)c1.c1ccc2cc3nc4c5cccnc5c5ncccc5c4nc3cc2c1` the EC50 was 14 ± 1 µM (4T1; cell viability, MTT; 4 h, green light, 10 min).
